Measured values from different studies.
Compare with care: the assays were run in different laboratories. Numbers after ± are the reported error. No end group written: not given here.
B1: enzyme (Bacillus pumilus, UniProt A8FFI9); chain EARSIAWSVDEFFKNREGTFVIQEVKEKSPWVYNKKRAKERFAPQSTFKVANALIGLQTGAVRDEYDIKYWDGVKREIDNWNRDHTLGSGMRDSVVWYYQAMARDIGEERMNHWVKAIHYGNKDISGGIDQFWLSSTLRISPIEQVRFLKQLYEETLPFDLKNMRTVKRMMVQEEEKHATLYGKTGSGSDIGWYVGFIKHEHKTYILATNIKGTGIEAKDITYRILKKYHLMEASV
B2: UGT1A9 (Homo sapiens, UniProt O60656); chain GKLLVVPMDGSHWFTMRSVVEKLILRGHEVVVVMPEVSWQLGRSLNCTVKTYSTSYTLEDLDREFKAFAHAQWKAQVRSIYSLLMGSYNDIFDLFFSNCRSLFKDKKLVEYLKESSFDAVFLDPFDNCGLIVAKYFSLPSVVFARGILCHYLEEGAQCPAPLSYVPRILLGFSDAMTFKERVRNHIMHLEEHLLCHRFFKNALEIASEILQTPVTEYDLYSHTSIWLLRTDFVLDYPKPVMPNMIFIGGINCHQGKPLPMEFEAYINASGEHGIVVFSLGSMVSEIPEKKAMAIADALGKIPQTVLWRYTGTRPSNLANNTILVKWLPQNDLLGHPMTRAFITHAGSHGVYESICNGVPMVMMPLFGDQMDNAKRMETKGAGVTLNVLEMTSEDLENALKAVINDKSYKENIMRLSSLHKDRPVEPLDLAVFWVEFVMRHKGAPHLRPAAHDLTWYQYHSLDVIGFLLAVVLTVAFITFKCCAYGYRKCLGKKGRVKKAHKSKTH

epidermal growth factor — intact fraction (MDCK; size-exclusion chromatography; 2 h, 37 °C, transcytosed basal to apical): 78%
GRKKRRQRRRAHQ (Rhodamine-HIV Tat(48–60); also: rhodamine label, place not given here; sequence looked up) — cytosolic delivery efficiency (HeLa; FCS; peptide; 500 nM, 30 min, 37 °C): 2%
insulin human — half-life (Chymotrypsinogen A (Bos taurus, UniProt P00766); proteolytic degradation, RP-HPLC; 15 µM, pH 7.4, 37 °C): 8.4 min
COc1cccc2c1C(=O)c1c(O)c3c(c(O)c1C2=O)C[C@@](O)(C(=O)CO)C[C@@H]3O[C@H]1C[C@H](NC(=O)[C@@H]2CCCN2C(=O)CN)[C@H](O)[C@H](C)O1 — AUC (mouse, E0771 tumour-bearing, plasma; intravenous, 92 µmol/kg PhAc-ALGP-Dox): 1.49 µM·h
human His-tagged SHP2 — Vmax (SHP2 (human); basal phosphatase activity; 30 min, pH 7.2, 30 °C, together with: p-nitrophenyl phosphate 20 mM): 6.8 pmol/min/pmol
B1 (enzyme) — kcat (Cc1onc(-c2ccccc2)c1C(=O)N[C@@H]1C(=O)N2[C@@H]1SC(C)(C)[C@@H]2C(=O)O; steady-state kinetics; pH 7): 19 ± 1 s⁻¹
CC(C)[C@H](NC(=O)[C@@H]1CCCN1C(=O)[C@H](CCCNC(=N)N)NC(=O)[C@H](CS)NC(=O)[C@H](Cc1c[nH]c2ccccc12)NC(=O)[C@H](CCCNC(=N)N)NC(=O)[C@@H](Cc1ccccc1)NC(=O)[C@H](Cc1c[nH]cn1)NC(=O)[C@H](CCC(=O)O)NC(=O)[C@H](CS)NC(=O)[C@H](CS)NC(=O)[C@H](CCCCN)NC(=O)[C@@H]1CC(=O)N[C@@H](CCCNC(=N)N)C(=O)N[C@@H](C)C(=O)N[C@@H](CC(=O)O)C(=O)N[C@H](Cc2ccc(O)cc2)C(=O)N1)C(N)=O [technetium-99m labelled] — tissue uptake (C57 mice, bladder; iv, 0.037 MBq, 24 h): 85.6 ± 1.21 %ID
B2 (UGT1A9) — Km (O=C(/C=C/c1ccccc1)c1ccc(O)cc1; steady-state kinetics; pH 7.4, 37 °C): 1.72 µM

Excerpt of the above:
B2 (UGT1A9) — Km (O=C(/C=C/c1ccccc1)c1ccc(O)cc1; steady-state kinetics; pH 7.4, 37 °C): 1.72 µM
